Results from different studies.
Protocols differ between the studies behind these lines. “And” joins repeats or separate records; there may be more than shown.
Target: Dual specificity protein kinase CLK1 (CLK1, Homo sapiens, UniProt P49759)

SMILES | test | system | conditions | how to read | quantity | value
CN1CC[C@@H](COc2cnc(C#N)cc2-c2ccn3nc(NC(=O)C4CC4)cc3c2)C1 | enzyme activity, inhibitor | – | 1 µM | – | inhibition | 9%
Nc1ncc2c(n1)-c1c([nH]c3ccc(C4=CCOCC4)cc13)CCC2 | binding, competition with immobilised ligand | – | 1 µM | – | remaining binding | 74%
CNC1C[S+]2CC[S+]3CC[S+](C1)[Ru-4]321([N]=C=S)[n]2c3ccc(OC)cc3c3c4c(c5cc(F)c[n+]1c5c32)C(=O)NC4=O (stereo not drawn) | KinomeScan | – | 0.1 µM | baseline: untreated | remaining binding | 94%
NC(=O)[C@@H](O)C[C@H]1CCc2sc3ncnc(O[C@H]4CC[C@H](N5CCOCC5)CC4)c3c21 | enzyme activity, inhibitor | – | 10 µM | – | inhibition | 99%
COc1c(Cl)cccc1Nc1c(-c2ccncc2C#C[C@@]2(C)CCCN2C(=O)/C=C/CN(C)C)[nH]c2c1C(=O)NCC2 | binding, competition with immobilised ligand | – | 3 µM | – | remaining binding | 100%
COc1ccc(O)cc1-c1c[nH]c2ncc(-c3cncc(C(=O)N(C)C)c3)cc12 | binding, competition with immobilised ligand | – | 0.2 µM | – | inhibition | 10%
C=CC(=O)Nc1cccc(-c2cnc3[nH]cc(C(=O)NC(C)(C)C)c3n2)c1 | enzyme activity, inhibitor | – | 0.1 µM | – | inhibition | 11%
CNC(=O)C[C@H](Cc1ccc(C#N)cc1)NC(=O)c1cc(-c2ccc(CN[C@H](C)c3ccc(C)cc3)o2)ccc1Cl | enzyme activity, inhibitor | – | 1 µM | – | activity vs control | 106%
C=CC(=O)N1CCc2ccc(-n3c(=O)ccc4cnc5ccc(-c6cnn(C)c6)cc5c43)cc21 | KINOMEscan | – | 1 µM | baseline: DMSO control | remaining binding | 96%
Cc1cccc(O[C@H]2CCC[C@@H](C(C)CNCc3ccncc3)C2)c1 (relative stereo) | enzyme activity, inhibitor | – | 1 µM | – | inhibition | -8%
N[C@H]1CC[C@H](Nc2nccc(-c3cccnc3Oc3ccc(NC(=O)NC4CC4)c4ccccc34)n2)CC1 | kinobead competition pulldown | HEK293/HCT116 lysate mixture | 10 µM, 1 h, 4 °C | lower = stronger competition | log2 LFQ intensity | 21.4 and 21.6 and 21.5
CNC(=O)C1CCN(c2cc(C)c(F)cc2NC(=O)c2ccc(-c3cc(O)ccc3C)c(C)c2)CC1 | binding, competition with immobilised ligand | – | 1 µM | – | remaining binding | 91%
CCn1cc(C(=O)O)c(=O)c2c(N)c(F)c(NC3CCCCC3)cc21 | kinase activity | – | 0.1 µM, with: ATP at Km | – | inhibition | 9.3%
COc1cc(Nc2nc(C)cc(-c3cnn4nc(OC)ccc34)n2)cc(C(F)(F)F)c1 | binding, competition with immobilised ligand | – | 1 µM | – | remaining binding | 100%
C=CC(=O)Nc1cc(-c2nn(C3CCN(CCNC(=O)[C@H](C)CCC45CC6CC(CC(C6)C4)C5)CC3)c3ncnc(N)c23)ccc1Oc1ccccc1 | inhibitor, KiNativ profiling | biochemical | 2 µM | – | inhibition | -0.3%

A few entries again:
SMILES | test | system | conditions | how to read | quantity | value
COc1cc(Nc2nc(C)cc(-c3cnn4nc(OC)ccc34)n2)cc(C(F)(F)F)c1 | binding, competition with immobilised ligand | – | 1 µM | – | remaining binding | 100%
C=CC(=O)Nc1cc(-c2nn(C3CCN(CCNC(=O)[C@H](C)CCC45CC6CC(CC(C6)C4)C5)CC3)c3ncnc(N)c23)ccc1Oc1ccccc1 | inhibitor, KiNativ profiling | biochemical | 2 µM | – | inhibition | -0.3%
